Experimental data collected from several papers.
Compare with care: the assays were run in different laboratories. “And” joins repeats or separate records; there may be more than shown. ± gives the spread as reported.

SMILES	target or system	test	test system	setting	scale	endpoint	result
CCCC(=O)OCSc1ccccc1C(=O)NCCC(N)=O	HIV-1	viral replication	human PBMC, group O BCF01, CCR5-tropic clinical isolate			EC50	7040 ± 1740 nM
O=C1Nc2ccc(Cl)cc2[C@@](C#CC2CC2)(C(F)(F)F)O1	HIV-1	viral replication, single-round infection	RT mutant L234I			EC50	0.8 ± 0.1 nM
N#CC(C#N)=NNc1cccc(Cl)c1	Escherichia coli	checkerboard	tetracycline-resistant (pBR322)	1 µM, added: tetracycline		tetracycline MIC	900 µM
CC[C@H](C)[C@H](NC(=O)[C@H](CC(C)C)NC(=O)[C@H](Cc1c[nH]c2ccccc12)NC(=O)[C@H](CCC(N)=O)NC(=O)[C@@H](NC(=O)[C@H](Cc1ccccc1)NC(=O)[C@H](C)NC(=O)[C@H](CCCCNC(=O)COCCOCCNC(=O)COCCOCCNC(=O)CC[C@H](NC(=O)CCCCCCCCCCCCCCCCCCC(=O)O)C(=O)O)NC(=O)[C@H](CCC(N)=O)NC(=O)[C@H](C)NC(=O)[C@@H](NC(=O)[C@H](CCCCN)NC(=O)[C@H](CC(=O)O)NC(=O)[C@H](CC(C)C)NC(=O)C(C)(C)NC(=O)[C@@H](NC(=O)[C@H](CO)NC(=O)[C@H](Cc1ccc(O)cc1)NC(=O)[C@H](CC(=O)O)NC(=O)[C@H](CO)NC(=O)[C@@H](NC(=O)[C@H](Cc1ccccc1)NC(=O)[C@@H](NC(=O)CNC(=O)[C@H](CCC(=O)O)NC(=O)C(C)(C)NC(=O)[C@@H](N)Cc1ccc(O)cc1)[C@@H](C)O)[C@@H](C)O)[C@@H](C)CC)[C@@H](C)CC)C(C)C)C(=O)N[C@@H](C)C(=O)NCC(=O)NCC(=O)N1CCC[C@H]1C(=O)N[C@@H](CO)C(=O)N[C@@H](CO)C(=O)NCC(=O)N[C@@H](C)C(=O)N1CCC[C@H]1C(=O)N1CCC[C@H]1C(=O)N1CCC[C@H]1C(=O)N[C@@H](CO)C(N)=O			healthy subjects	all MAD doses		subjects with severe hypoglycaemia	0%
Nc1ccn([C@H]2C[C@H](O)[C@](CO)(CF)O2)c(=O)n1	HIV-1 K65R		MT4			IC50	34.6 nM
Cc1cn([C@H]2C[C@H](N=[N+]=[N-])[C@@H](CO)O2)c(=O)[nH]c1=O	HIV-1	viral replication	human PBMC, subtype C 92BR025, CCR5-tropic clinical isolate			EC50	5.16 ± 3.61 nM
CNC(=O)[C@@H](NC(=O)[C@H](CC(C)C)[C@H](O)C(=O)NO)C(C)(C)C	Daboia russelii venom proteases (SVMP)	protease activity, inhibitor	RJ population	0.1 µM, added: azocasein substrate	reference: venom alone	remaining activity	99.7% and 100%
CC[C@]1(CO)O[C@@H](n2cnc3c(=O)[nH]c(N)nc32)C[C@@H]1O	HIV-1 M184V	MTT	MT4			IC50	> 1000 nM
Cn1c(Cn2ccc(C(F)(F)F)c(Oc3cc(Cl)cc(C#N)c3)c2=O)n[nH]c1=O	HIV-1	viral replication, single-round infection	RT mutant M184I			EC50	0.6 ± 0.2 nM
Cn1cnc(Cn2c(=O)[nH]/c(=N\c3cc4cn(C)nc4cc3Cl)n(Cc3cc(F)c(F)cc3F)c2=O)n1			human, normal renal function	oral, 375 mg, treatment-related dry mouth, Severe severity		patients with adverse event	0%
C#C[C@]1(CO)O[C@@H](n2cnc3c(=O)[nH]c(N)nc32)C[C@@H]1O	HIV-1 K65R	MTT	MT4			IC50	0.1 ± 0.06 nM
Nc1ncnc2c([C@@H]3N[C@H](CO)[C@@H](O)[C@H]3O)c[nH]c12	Sudan ebolavirus	viral replication	HeLa, Boniface	100 µM		inhibition	87.4%
Cc1cc(/C=C/C#N)cc(C)c1Nc1ncc(N)c(Nc2c(C)cc(/C=C/C#N)cc2C)n1	HIV-1	viral replication, single-round infection	RT mutant V106A			EC50	134 ± 9.7 nM

A few entries again:
SMILES	target or system	test	test system	setting	scale	endpoint	result
CNC(=O)[C@@H](NC(=O)[C@H](CC(C)C)[C@H](O)C(=O)NO)C(C)(C)C	Daboia russelii venom proteases (SVMP)	protease activity, inhibitor	RJ population	0.1 µM, added: azocasein substrate	reference: venom alone	remaining activity	99.7% and 100%
